Results of several laboratories.
Each line is one published result; not all experiments were run side by side. ± marks the error that the study gave. *: point of attachment.
B1: FITC-labelled, Ahx spacer, C-amide; FITC = O=C1OC2(c3ccc(O)cc3Oc3cc(O)ccc32)c2ccc(NC(=S)*)cc21; Ahx = NCCCCCC(=O)O; chain {FITC-Ahx}-KKGFYKKKQCRPSKGRKRGFCW-NH2 (cysteine pairing not given here)

Molecule	cell line	assay	system	setting	scale	endpoint	value
NC1(C(=O)O)CC2CCC1C2 (stereo not shown)	IDO-transduced EG7	tryptophan uptake		sodium-free, uptake 3 min, with: 3H-L-tryptophan		Ki	80000 nM
N.N.O=C([O-])C1(C(=O)[O-])CCC1.[Pt+2]	OV-90		platinum resistant	59.0 µM, 72 h		decrease of cell viability	~30%
NS(=O)(=O)c1ccc(NC(=O)Nc2ccc(F)cc2)cc1	HD-MB03 and Daoy medulloblastoma	cell viability, resazurin		10 µM, 72 h, hypoxia	baseline: untreated	viability decrease	10 to 15%
Cc1ccc2cc(-c3ccccc3)[nH]c2c1	RAW264.7	sulforhodamine B		50 µM, 20 h	baseline: vehicle	viability	76 ± 4.5%
COc1cc2c(cc1OC)C(CCC1(C)CCc3cc(OCc4ccc(F)cc4)ccc3O1)N(C)CC2 (stereo not shown)	TNBC cells	qRT-PCR		7.0 µM	baseline: DMSO	Bcl-2 mRNA level	decreased
NC(=O)Cn1cc(COc2ccccc2-c2nc(Cc3ccccc3)no2)nn1	A549	qPCR, item: TP53		concentration not given, 24 h	baseline: untreated	mRNA level	5.9 ± 0.04 fold
COc1ccc(C2=N[C@@H](c3ccc(Cl)cc3)[C@@H](c3ccc(Cl)cc3)N2C(=O)N2CCNC(=O)C2)c(OC(C)C)c1	LNCaP	western blot		20 µM, 48 h	baseline: vehicle	Hdm2 protein level	increased
N=C(N)NCCC[C@H](NC(=O)[C@@H]1CSSC[C@H](NC(=O)[C@H](Cc2ccc3ccccc3c2)NC(=O)[C@H](CCCNC(=N)N)NC(=O)[C@H](CCCNC(=N)N)NC(=O)CN2CCN(CC(=O)O)CCN(CC(=O)O)CC2)C(=O)N[C@@H](Cc2ccc(O)cc2)C(=O)N[C@@H](CCCNC(N)=O)C(=O)N[C@@H](CCCCN)C(=O)N[C@H](CCCCN)C(=O)N2CCC[C@H]2C(=O)N[C@@H](Cc2ccc(O)cc2)C(=O)N[C@@H](CCCNC(=N)N)C(=O)N[C@@H](CCCNC(N)=O)C(=O)N1)C(N)=O [fluorine-18 labelled]	CHO expressing CXCR4			1 h, 37 °C	baseline: added radioactivity	cell uptake	46.4 ± 1.33%
CC(C)(C)OC(=O)Nc1cccc(-c2cc(C(=O)NCCc3cc(C(=O)NO)no3)no2)c1	BXPC-3	cell growth or viability, MTS		72 h		GI50	> 50000 nM
COc1cccc2c1C(=O)c1c(O)c3c(c(O)c1C2=O)C[C@@](O)(C(=O)CO)C[C@@H]3O[C@H]1C[C@H](N)[C@H](O)[C@H](C)O1	Caco-2	qPCR, item: EGFR		IC50, 24 h	baseline: untreated	mRNA level	0.15 ± 0.03 fold
B1	CHO pgsA-745, GAG-deficient	flow cytometry		20 µM, 2 h, 37 °C, FITC-labelled peptide	baseline: wild-type CHO-K1	cellular uptake	< 20%
CCn1cc(-c2cc(Cn3ccnc3)cc3c2CCN([C@H](c2cc(C)ccn2)C2CC2)C3=O)c(C(F)(F)F)n1	MOLM-13	cell growth or viability, ATP luminescence		5 days		GI50	27 nM
CC(C)C[C@H](NC(=O)[C@@H](O)[C@H](N)Cc1ccccc1)C(=O)O	U-937	cell proliferation		145 µM, day 4, with: BSO 25 µM, 20 h preincubation		inhibition	53.4 ± 4.8%
Nc1nc2[nH]c(CCCc3ccc(C(=O)N[C@@H](CCC(=O)O)C(=O)O)s3)cc2c(=O)[nH]1	KB			concentration not given, with: thymidine 10 µM		reversal of growth inhibition	no effect
O=C1Nc2ccccc2/C1=N/N=Cc1ccc(OCc2ccccc2)cc1	SH-SY5Y	neuroprotection, MTT		1.5 µg/mL, 24 h, with: rotenone 10 µM		viability	~50%
tetraglycine	MELOE-1(36-44)-specific HLA-A*0201 CD8 T cell clone	TNF-alpha production, cross-presentation by mature DC		synthetic long peptide		EC50	1200 nM
CC(C)(C)OC(=O)Nc1ccc(-c2cc(C(=O)NCc3ccc(C(=O)NO)cc3)no2)cc1	BXPC-3	cell growth or viability, MTS		72 h		GI50	8000 nM
COc1cc(/C=C/C(=O)CC(=O)/C=C/c2ccc(O)c(OC)c2)ccc1O	HEK293T	western blot		50 µM, 4 h		Tat secretion	no effect
CC(=Cc1ccc(Br)o1)[N+](=O)[O-]	KB			mean of three Leishmania species	baseline: KB CC50 over Leishmania IC50	selectivity index	17.9
CO[C@@H]1[C@H](O)[C@@H](COP(=O)(O)OP(=O)([O-])OP(=O)(O)OP(=O)(O)OC[C@H]2O[C@@H](n3cnc4c(=O)[nH]c(N)nc43)[C@H](O)[C@@H]2O)O[C@H]1n1c[n+](C)c2c(O)nc(N)nc21	human immature dendritic cells	reporter gene		72 h, cap on electroporated luciferase mRNA	baseline: beta-S-ARCA D1 capped mRNA	relative total luciferase expression	0.11 ± 0.03
O=C(Cn1cc(COc2ccccc2-c2nc(Cc3ccccc3)no2)nn1)NNC(=S)Nc1ccccc1	Caco-2	qPCR, item: TP53		concentration not given, 24 h	baseline: untreated	mRNA level	4.36 ± 0.05 fold
Nc1nc2ccccc2cc1-c1ccccc1F	mouse fibroblasts	Western blot	conditioned medium	500 nM, 24 h, unit not given	baseline: Col1A1	secreted Par-4 level	82.1 ± 21.2
CC1=C(CCC(=O)O)c2cc3[nH]c(cc4nc(cc5[nH]c(cc1n2)c(C)c5C(C)O)C(C)=C4C(C)O)c(C)c3CCC(=O)O (stereo not shown)	red blood cells	bright-field and fluorescence microscopy		concentration not given, irradiation beyond lysis		ghost morphology	no effect

Molecule	cell line	assay	system	setting	scale	endpoint	value
CN(C)c1ccc2cc(-c3ccc(F)cc3)c(N)nc2c1	mouse fibroblasts	Western blot	conditioned medium	500 nM, 24 h, unit not given	baseline: Col1A1	secreted Par-4 level	12.3 ± 2
Nc1ccccc1C#Cc1cc(F)cc(F)c1	RAW264.7	sulforhodamine B		50 µM, 20 h	baseline: vehicle	viability	30.8 ± 0.6%
CN(C)c1ccc2cc(-c3cccc(F)c3)c(N)nc2c1	mouse fibroblasts	Western blot	conditioned medium	500 nM, 24 h, unit not given	baseline: Col1A1	secreted Par-4 level	66.8 ± 10.9
fMLF analogue	rabbit polymorphonuclear leukocytes			2 x 10 to 8 M, 30 min uptake, 37 °C		release half-life	3.5 min
Cc1cn(-c2cc(NC(=O)c3ccc(C)c(Nc4nccc(-c5cccnc5)n4)c3)cc(C(F)(F)F)c2)cn1	K562 K562-WT			48 h		GI50	~0.71 nM
Nc1ccc(-c2cc3ccccc3[nH]2)cc1	RAW264.7	sulforhodamine B		50 µM, 20 h	baseline: vehicle	viability	58.7 ± 2.9%
CN(C)c1ccc2cc(-c3ccccc3F)c(=O)[nH]c2c1	mouse fibroblasts	Western blot	conditioned medium	500 nM, 24 h, unit not given	baseline: Col1A1	secreted Par-4 level	33.2 ± 0.9
Cc1ccccc1-c1cc2ccccc2[nH]1	RAW264.7	sulforhodamine B		50 µM, 20 h	baseline: vehicle	viability	31.5 ± 2.7%
N=C(N)Nc1ccc(OC(=O)c2ccc(NC(=N)N)cc2)cc1	Huntington disease fibroblasts	ATP2A1 splicing rescue		48 h		minimal effective concentration	100 to 300 µM
CN(C)c1ccc2cc(-c3c(F)cccc3Cl)c(N)nc2c1	mouse fibroblasts	Western blot	conditioned medium	500 nM, 24 h, unit not given	baseline: Col1A1	secreted Par-4 level	127 ± 1.4
c1ccc(C2Cc3ccccc3N2)cc1 (stereo not shown)	RAW264.7	sulforhodamine B		50 µM, 20 h	baseline: vehicle	viability	103 ± 7.4%
NS(=O)(=O)c1ccc(Nc2nc3nccc(-c4c(F)ccc(F)c4F)n3n2)cc1	HD-MB03 and Daoy medulloblastoma	cell viability, resazurin		10 µM, 72 h, hypoxia	baseline: untreated	viability decrease	20 to 35%
COCn1c(-c2ccccc2)cc2ccccc21	RAW264.7	sulforhodamine B		50 µM, 20 h	baseline: vehicle	viability	67.3 ± 6.2%
CNC(=O)c1ccc(N2C(=S)N(c3cnc(C#N)c(C(F)(F)F)c3)C(=O)C23CCC3)cc1F	LNCaP	PSA expression, antagonist		1 day, charcoal-stripped serum 3 days, with: 1 nM DHT		Ki	38.4 nM
NNC(=O)Cn1cc(COc2ccccc2-c2nc(-c3ccccc3)no2)nn1	Caco-2	qPCR, item: EGFR		IC50, 24 h	baseline: untreated cancer cells	mRNA level	0.35 ± 0.03 fold
c1ccc(Cn2c(-c3ccccc3)cc3ccccc32)cc1	RAW264.7	NO release, inhibitor, Griess		50 µM, 20 h, LPS-stimulated		inhibition	0%
NC(=O)Cn1cc(COc2ccccc2-c2nc(-c3ccccc3)no2)nn1	A549	qPCR, item: EGFR		IC50, 24 h	baseline: untreated cancer cells	mRNA level	0.25 ± 0.007 fold
O=C(NO)c1ccc(CNC(=O)c2cc(Cn3c4ccccc4c4ccccc43)on2)cc1	BXPC-3	cell growth or viability, MTS		72 h		GI50	2300 nM
COC1C(O)[C@@H](COP(=O)(O)OP(=O)([S-])OP(=O)(O)OP(=O)(O)OC[C@H]2O[C@@H](n3cnc4c(=O)[nH]c(N)nc43)C(O)C2O)O[C@H]1n1c[n+](C)c2c(O)nc(N)nc21 (mixture of isomers)	human immature dendritic cells	reporter gene		72 h, cap on electroporated luciferase mRNA	baseline: beta-S-ARCA D1 capped mRNA	relative total luciferase expression	0.2 ± 0.02
CC(=O)Oc1ccc(/C=C\C(=O)Nc2ccc(S(=O)(=O)Nc3ncccn3)cc2)cc1OC(C)=O	A549	cell viability, MTT		24 h pretreatment, with: H2O2 800 µM for 4 h		protective concentration	≤ 50 µM
CCN(CC)C(=O)Cc1c(-c2ccc(OCC[18F])cc2)nn2c(C)cc(C)nc12	RAW264.7			1 h, 37 °C, with: PK11195 5 ng/mL	baseline: added dose	uptake	1.27%
COc1ccccc1-c1ccnc2nc(Nc3ccc(S(N)(=O)=O)cc3)nn12	HD-MB03 and Daoy medulloblastoma	cell viability, resazurin		10 µM, 72 h, hypoxia	baseline: untreated	viability decrease	20 to 35%
Cc1ccc(-c2cc3ccccc3[nH]2)cc1	RAW264.7	sulforhodamine B		50 µM, 20 h	baseline: vehicle	viability	57.9 ± 9.5%
